Results gathered from unrelated publications.
Numbered parts are unrelated; each lists some results of a single study.
Chain of UniProt Q9H093 (whole entry, looked up): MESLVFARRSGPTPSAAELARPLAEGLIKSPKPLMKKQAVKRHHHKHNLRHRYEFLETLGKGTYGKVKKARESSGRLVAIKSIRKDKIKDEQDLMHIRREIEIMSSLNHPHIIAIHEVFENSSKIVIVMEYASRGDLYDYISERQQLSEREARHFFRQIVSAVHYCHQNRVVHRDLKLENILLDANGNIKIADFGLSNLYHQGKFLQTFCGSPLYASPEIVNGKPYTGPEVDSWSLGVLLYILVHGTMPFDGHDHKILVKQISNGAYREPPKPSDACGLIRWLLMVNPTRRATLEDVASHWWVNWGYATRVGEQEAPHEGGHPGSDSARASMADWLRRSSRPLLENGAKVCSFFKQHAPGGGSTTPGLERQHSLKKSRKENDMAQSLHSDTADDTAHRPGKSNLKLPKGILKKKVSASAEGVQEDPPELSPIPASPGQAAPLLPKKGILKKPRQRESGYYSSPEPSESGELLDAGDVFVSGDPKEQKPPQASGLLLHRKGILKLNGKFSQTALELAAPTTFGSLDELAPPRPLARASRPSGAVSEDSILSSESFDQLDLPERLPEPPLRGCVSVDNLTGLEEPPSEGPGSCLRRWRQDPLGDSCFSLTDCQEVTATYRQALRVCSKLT
Chain of UniProt P10721 (whole entry, unmodified, looked up): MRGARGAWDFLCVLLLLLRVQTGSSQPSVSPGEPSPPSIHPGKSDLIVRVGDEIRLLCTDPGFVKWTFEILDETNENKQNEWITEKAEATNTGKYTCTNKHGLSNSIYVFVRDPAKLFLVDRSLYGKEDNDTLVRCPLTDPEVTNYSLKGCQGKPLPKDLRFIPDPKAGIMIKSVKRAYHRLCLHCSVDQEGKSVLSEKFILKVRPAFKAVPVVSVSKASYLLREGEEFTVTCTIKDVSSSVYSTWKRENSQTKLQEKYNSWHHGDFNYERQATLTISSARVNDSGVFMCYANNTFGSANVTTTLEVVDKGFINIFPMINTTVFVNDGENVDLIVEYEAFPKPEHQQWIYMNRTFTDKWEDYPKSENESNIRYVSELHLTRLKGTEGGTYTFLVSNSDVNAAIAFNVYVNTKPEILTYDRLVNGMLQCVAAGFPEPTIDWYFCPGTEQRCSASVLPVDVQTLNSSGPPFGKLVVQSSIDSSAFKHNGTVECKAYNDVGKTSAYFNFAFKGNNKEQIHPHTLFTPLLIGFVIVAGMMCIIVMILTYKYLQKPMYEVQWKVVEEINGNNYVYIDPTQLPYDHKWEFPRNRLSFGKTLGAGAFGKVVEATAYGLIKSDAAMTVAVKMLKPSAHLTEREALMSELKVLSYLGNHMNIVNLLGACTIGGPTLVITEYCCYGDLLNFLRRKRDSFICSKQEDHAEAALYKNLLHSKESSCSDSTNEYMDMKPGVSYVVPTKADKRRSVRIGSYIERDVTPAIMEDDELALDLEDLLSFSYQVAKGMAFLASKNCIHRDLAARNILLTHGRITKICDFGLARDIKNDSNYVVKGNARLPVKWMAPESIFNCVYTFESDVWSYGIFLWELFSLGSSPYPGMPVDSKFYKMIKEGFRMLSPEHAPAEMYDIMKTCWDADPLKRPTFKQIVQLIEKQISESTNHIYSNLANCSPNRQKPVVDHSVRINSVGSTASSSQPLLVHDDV
Chain of UniProt Q99558 (whole entry, looked up): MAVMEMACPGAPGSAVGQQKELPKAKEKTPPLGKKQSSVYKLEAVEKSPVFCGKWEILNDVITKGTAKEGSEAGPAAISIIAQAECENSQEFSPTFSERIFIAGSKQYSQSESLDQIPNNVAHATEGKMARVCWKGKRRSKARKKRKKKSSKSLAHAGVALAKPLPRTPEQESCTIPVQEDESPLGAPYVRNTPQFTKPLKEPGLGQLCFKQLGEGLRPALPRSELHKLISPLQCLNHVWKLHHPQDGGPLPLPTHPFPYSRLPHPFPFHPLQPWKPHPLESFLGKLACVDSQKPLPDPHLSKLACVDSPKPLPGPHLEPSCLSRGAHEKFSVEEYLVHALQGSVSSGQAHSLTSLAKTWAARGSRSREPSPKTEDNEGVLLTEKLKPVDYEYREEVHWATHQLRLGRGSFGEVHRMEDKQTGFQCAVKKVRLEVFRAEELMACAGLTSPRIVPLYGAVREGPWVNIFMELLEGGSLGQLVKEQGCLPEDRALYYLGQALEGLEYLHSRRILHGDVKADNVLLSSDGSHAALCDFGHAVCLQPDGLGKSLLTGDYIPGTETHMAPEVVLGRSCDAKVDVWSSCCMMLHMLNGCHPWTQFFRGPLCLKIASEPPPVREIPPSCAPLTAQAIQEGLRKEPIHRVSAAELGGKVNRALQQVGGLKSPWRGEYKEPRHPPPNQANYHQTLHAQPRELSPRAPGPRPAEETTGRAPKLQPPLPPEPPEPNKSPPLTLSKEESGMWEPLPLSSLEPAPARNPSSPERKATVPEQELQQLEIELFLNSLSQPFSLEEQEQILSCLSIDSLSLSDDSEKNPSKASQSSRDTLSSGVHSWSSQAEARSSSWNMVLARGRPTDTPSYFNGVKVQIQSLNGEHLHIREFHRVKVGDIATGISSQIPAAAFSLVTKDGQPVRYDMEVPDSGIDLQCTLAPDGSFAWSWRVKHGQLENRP
Chain of UniProt Q96D53 (whole entry, looked up): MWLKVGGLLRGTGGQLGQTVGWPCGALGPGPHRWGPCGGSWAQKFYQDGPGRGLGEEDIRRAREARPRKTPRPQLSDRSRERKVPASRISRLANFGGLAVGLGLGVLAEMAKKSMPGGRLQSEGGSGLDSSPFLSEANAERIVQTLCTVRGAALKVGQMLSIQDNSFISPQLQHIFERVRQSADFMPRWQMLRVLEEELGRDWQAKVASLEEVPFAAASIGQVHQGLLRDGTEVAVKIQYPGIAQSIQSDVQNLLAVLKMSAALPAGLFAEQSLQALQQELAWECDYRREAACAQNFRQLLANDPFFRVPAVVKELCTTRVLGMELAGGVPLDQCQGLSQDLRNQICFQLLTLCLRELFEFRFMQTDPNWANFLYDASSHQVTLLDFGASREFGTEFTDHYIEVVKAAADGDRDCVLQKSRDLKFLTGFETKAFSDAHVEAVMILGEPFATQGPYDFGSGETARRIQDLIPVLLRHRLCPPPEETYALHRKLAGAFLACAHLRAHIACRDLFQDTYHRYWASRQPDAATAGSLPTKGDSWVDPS
Chain of UniProt P42336 (whole entry, unmodified, looked up): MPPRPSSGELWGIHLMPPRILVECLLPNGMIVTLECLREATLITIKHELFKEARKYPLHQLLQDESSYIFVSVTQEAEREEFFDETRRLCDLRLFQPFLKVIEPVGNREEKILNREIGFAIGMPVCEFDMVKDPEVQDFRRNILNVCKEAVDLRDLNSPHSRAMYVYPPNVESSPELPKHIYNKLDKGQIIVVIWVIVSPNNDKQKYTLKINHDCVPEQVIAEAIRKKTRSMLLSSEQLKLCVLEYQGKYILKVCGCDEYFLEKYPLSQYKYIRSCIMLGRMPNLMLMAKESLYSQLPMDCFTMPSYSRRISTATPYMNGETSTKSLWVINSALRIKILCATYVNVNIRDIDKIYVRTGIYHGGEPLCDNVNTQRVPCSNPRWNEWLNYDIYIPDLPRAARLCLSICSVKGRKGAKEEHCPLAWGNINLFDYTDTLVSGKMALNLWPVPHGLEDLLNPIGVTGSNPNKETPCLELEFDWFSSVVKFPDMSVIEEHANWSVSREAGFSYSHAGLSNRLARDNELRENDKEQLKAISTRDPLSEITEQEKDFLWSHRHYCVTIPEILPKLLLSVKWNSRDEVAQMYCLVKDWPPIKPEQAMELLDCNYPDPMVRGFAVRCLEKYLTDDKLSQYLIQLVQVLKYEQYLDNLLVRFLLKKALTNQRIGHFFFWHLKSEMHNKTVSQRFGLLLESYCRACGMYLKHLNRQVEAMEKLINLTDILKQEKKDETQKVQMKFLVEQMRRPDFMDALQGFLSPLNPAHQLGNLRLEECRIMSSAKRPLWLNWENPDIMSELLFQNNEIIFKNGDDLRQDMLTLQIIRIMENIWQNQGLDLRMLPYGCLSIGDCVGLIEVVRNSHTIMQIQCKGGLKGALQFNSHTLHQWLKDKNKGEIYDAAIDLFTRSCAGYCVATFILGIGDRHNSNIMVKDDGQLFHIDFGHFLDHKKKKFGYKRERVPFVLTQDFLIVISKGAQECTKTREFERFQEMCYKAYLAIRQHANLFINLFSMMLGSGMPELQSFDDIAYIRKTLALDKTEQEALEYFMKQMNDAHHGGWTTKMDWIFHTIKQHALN
Chain of UniProt Q00532 (whole entry, looked up): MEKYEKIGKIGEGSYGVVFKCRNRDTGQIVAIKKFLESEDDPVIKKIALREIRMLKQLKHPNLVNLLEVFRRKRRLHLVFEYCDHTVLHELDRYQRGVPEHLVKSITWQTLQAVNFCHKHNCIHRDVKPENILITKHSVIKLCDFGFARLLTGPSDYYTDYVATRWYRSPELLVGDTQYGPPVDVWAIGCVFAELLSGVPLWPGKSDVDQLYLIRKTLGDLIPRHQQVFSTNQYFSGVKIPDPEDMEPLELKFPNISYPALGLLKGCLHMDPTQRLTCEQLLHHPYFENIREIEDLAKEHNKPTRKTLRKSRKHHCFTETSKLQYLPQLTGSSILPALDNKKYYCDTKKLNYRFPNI
Chain of UniProt Q15831 (whole entry, looked up): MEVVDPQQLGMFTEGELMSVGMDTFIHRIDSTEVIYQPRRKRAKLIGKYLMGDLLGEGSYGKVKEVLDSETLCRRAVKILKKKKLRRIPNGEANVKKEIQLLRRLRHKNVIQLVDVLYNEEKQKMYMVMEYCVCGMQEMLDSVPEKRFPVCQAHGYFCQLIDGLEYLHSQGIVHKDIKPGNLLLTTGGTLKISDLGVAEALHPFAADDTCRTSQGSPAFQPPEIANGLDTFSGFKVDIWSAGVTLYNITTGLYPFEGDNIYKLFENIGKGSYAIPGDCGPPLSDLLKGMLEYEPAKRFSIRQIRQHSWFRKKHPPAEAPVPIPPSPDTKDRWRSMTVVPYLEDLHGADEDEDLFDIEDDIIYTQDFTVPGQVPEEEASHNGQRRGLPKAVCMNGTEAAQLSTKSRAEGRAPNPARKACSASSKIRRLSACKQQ

Study 1
SMILES: CC(C)[C@H](CO)Nc1nc(Nc2cccc(Cl)c2)c2ncn(C(C)C)c2n1
Effect on: enzyme activity
Action: inhibitor
Concentration: 0.5 µM
Baseline: control
Endpoint: remaining activity
cGMP-dependent protein kinase 1, isoform beta (PRKG1, Homo sapiens, UniProt Q13976): 90.2%
TGF-beta receptor type-1 (TGFBR1, Homo sapiens, UniProt P36897): 103%
cAMP-dependent protein kinase catalytic subunit alpha (PRKACA, Homo sapiens, UniProt P17612): 102%
Serine/threonine-protein kinase OSR1 (OXSR1, Homo sapiens, UniProt O95747): 94.4%
G protein-coupled receptor kinase 3 (GRK3, Homo sapiens, UniProt P35626): 99.1%
Tyrosine-protein kinase Lyn, isoform B (LYN, Homo sapiens, UniProt P07948): 82.5%
Serine/threonine-protein kinase STK11 (STK11, Homo sapiens, UniProt Q15831): 84.4%
Serine/threonine-protein kinase 10 (STK10, Homo sapiens, UniProt O94804): 81.8%
Protein kinase C beta type, isoform beta-I (PRKCB, Homo sapiens, UniProt P05771): 102%
TGF-beta receptor type-2 (TGFBR2, Homo sapiens, UniProt P37173): 98.1%
Protein kinase C alpha type (PRKCA, Homo sapiens, UniProt P17252): 115%
Calcium/calmodulin-dependent protein kinase kinase 2 (CAMKK2, Homo sapiens, UniProt Q96RR4): 70.9%

Study 2
Compound: Cc1ccc(NC(=O)c2ccnc(C(F)(F)F)c2)cc1-c1cc(OCCO)nc(N2CCOCC2)c1
Endpoint: remaining binding
Ephrin type-A receptor 4 (EPHA4, Homo sapiens, UniProt P54764); binding, competition with immobilised ligand; 1 µM: 85%
Calcium/calmodulin-dependent protein kinase type IV (CAMK4, Homo sapiens, UniProt Q16566); binding; 1 µM: 100%
FLT3 ITD mutant, human; scanMAX kinase panel; 1000 nM; baseline: control: 100%
Homeodomain-interacting protein kinase 2 (HIPK2, Homo sapiens, UniProt Q9H2X6); binding, competition with immobilised ligand; 1 µM: 76%
Aurora kinase B (AURKB, Homo sapiens, UniProt Q96GD4); binding, competition with immobilised ligand; 1 µM: 89%
Tyrosine-protein kinase ABL1, phosphorylated (ABL1, Homo sapiens, UniProt P00519); binding, competition with immobilised ligand; 1 µM: 74%
ALK tyrosine kinase receptor (ALK, Homo sapiens, UniProt Q9UM73, L1196M); binding; 1 µM: 98%
NUAK family SNF1-like kinase 2 (NUAK2, Homo sapiens, UniProt Q9H093); binding; 1 µM: 100%
Mitogen-activated protein kinase kinase kinase 14 (MAP3K14, Homo sapiens, UniProt Q99558); binding; 1 µM: 100%
Serine/threonine-protein kinase pim-3 (PIM3, Homo sapiens, UniProt Q86V86); binding; 1 µM: 85%
Atypical kinase COQ8B, mitochondrial (COQ8B, Homo sapiens, UniProt Q96D53); binding; 1 µM: 100%
Ephrin type-A receptor 5 (EPHA5, Homo sapiens, UniProt P54756); binding, competition with immobilised ligand; 1 µM: 92%
Inhibitor of nuclear factor kappa-B kinase subunit alpha (CHUK, Homo sapiens, UniProt O15111); binding; 1 µM: 50%
Cyclin-dependent kinase-like 1 (CDKL1, Homo sapiens, UniProt Q00532); binding; 1 µM: 100%
Serine/threonine-protein kinase MRCK beta (CDC42BPB, Homo sapiens, UniProt Q9Y5S2); binding, competition with immobilised ligand; 1 µM: 88%
Hepatocyte growth factor receptor (MET, Homo sapiens, UniProt P08581, M1250T); binding; 1 µM: 100%
Dual specificity protein kinase TTK (TTK, Homo sapiens, UniProt P33981); binding, competition with immobilised ligand; 1 µM: 100%

Study 3
Cell line: A-375
Concentration: 100 µM
Time: 18 h
Endpoint: viability
O=C(O)c1ccc(-n2nc(-c3ccccc3O)nc2-c2ccccc2O)cc1: 75.9%
C1N2CN3CN1CN(C2)C3: 86.5%
COc1ccc(OC)c(C(O)CNC(=O)CN)c1 (stereo not drawn): 100%
COc1ccc(C[C@@H]2c3cc(OC)c(OC)cc3CC[N@+]2(C)CCC(=O)OCCCCCOC(=O)CC[N@@+]2(C)CCc3cc(OC)c(OC)cc3[C@H]2Cc2ccc(OC)c(OC)c2)cc1OC: 77.4%
N[C@H]1C(O)O[C@H](CO)[C@@H](O)[C@@H]1O (stereo partly drawn): 95.4%
CCCCS(=O)(=O)N[C@@H](Cc1ccc(OCCCCC2CCNCC2)cc1)C(=O)O: 101%
CC1(C)O[C@@H]2C[C@H]3[C@@H]4CCC5=CC(=O)C=C[C@]5(C)[C@H]4[C@@H](O)C[C@]3(C)[C@]2(C(=O)CO)O1: 98.8%
N=C(N)c1ccc(/N=N/Nc2ccc(C(=N)N)cc2)cc1: 46%
C=CCc1cc(OC)c(O)c(C(=O)NCCO)c1: 97.8%
CC(=O)Oc1cccc2c1C(=O)c1c(OC(C)=O)cc(C(=O)O)cc1C2=O: 51%

Study 4
SMILES: CC(C)CC(=O)N1CCc2nc(-c3ccc(Br)cc3)nc(N(C)Cc3ccccc3)c2C1
Effect on: cell-free assay
Method: competition with immobilised ligand
Concentration: 0.1 µM
Endpoint: remaining binding
Serine/threonine-protein kinase Sgk3 (SGK3, Homo sapiens, UniProt Q96BR1): 100%
Tyrosine-protein kinase Fes/Fps (FES, Homo sapiens, UniProt P07332): 100%
Mast/stem cell growth factor receptor Kit (KIT, Homo sapiens, UniProt P10721, V559D/V654A): 98%
Fibroblast growth factor receptor 4 (FGFR4, Homo sapiens, UniProt P22455): 98%
Dual specificity mitogen-activated protein kinase kinase 6 (MAP2K6, Homo sapiens, UniProt P52564): 100%
Phosphatidylinositol 4,5-bisphosphate 3-kinase catalytic subunit alpha isoform (PIK3CA, Homo sapiens, UniProt P42336, H1047L): 100%
Macrophage-stimulating protein receptor (MST1R, Homo sapiens, UniProt Q04912): 100%
Phosphatidylinositol 4-phosphate 5-kinase type-1 alpha (PIP5K1A, Homo sapiens, UniProt Q99755): 100%
Mast/stem cell growth factor receptor Kit (KIT, Homo sapiens, UniProt P10721): 100%
Ribosomal protein S6 kinase alpha-6, C-terminal kinase domain (RPS6KA6, Homo sapiens, UniProt Q9UK32): 100%
Phosphatidylinositol 5-phosphate 4-kinase type-2 beta (PIP4K2B, Homo sapiens, UniProt P78356): 61%
SRSF protein kinase 2 (SRPK2, Homo sapiens, UniProt P78362): 100%
Dual specificity mitogen-activated protein kinase kinase 4 (MAP2K4, Homo sapiens, UniProt P45985): 97%
NUAK family SNF1-like kinase 2 (NUAK2, Homo sapiens, UniProt Q9H093): 100%
Serine/threonine-protein kinase LATS2 (LATS2, Homo sapiens, UniProt Q9NRM7): 94%
Mitogen-activated protein kinase kinase kinase 19 (MAP3K19, Homo sapiens, UniProt Q56UN5): 100%
Serine/threonine-protein kinase TNNI3K (TNNI3K, Homo sapiens, UniProt Q59H18): 100%
SRSF protein kinase 1 (SRPK1, Homo sapiens, UniProt Q96SB4): 99%
cAMP-dependent protein kinase catalytic subunit PRKX (PRKX, Homo sapiens, UniProt P51817): 100%
Mitogen-activated protein kinase kinase kinase 7 (MAP3K7, Homo sapiens, UniProt O43318): 78%
Serine/threonine-protein kinase TAO1 (TAOK1, Homo sapiens, UniProt Q7L7X3): 100%

Excerpt of the above (study 2):
Mitogen-activated protein kinase kinase kinase 14 (MAP3K14, Homo sapiens, UniProt Q99558); binding; 1 µM: 100%
Serine/threonine-protein kinase pim-3 (PIM3, Homo sapiens, UniProt Q86V86); binding; 1 µM: 85%
Atypical kinase COQ8B, mitochondrial (COQ8B, Homo sapiens, UniProt Q96D53); binding; 1 µM: 100%
Ephrin type-A receptor 5 (EPHA5, Homo sapiens, UniProt P54756); binding, competition with immobilised ligand; 1 µM: 92%
Inhibitor of nuclear factor kappa-B kinase subunit alpha (CHUK, Homo sapiens, UniProt O15111); binding; 1 µM: 50%
Cyclin-dependent kinase-like 1 (CDKL1, Homo sapiens, UniProt Q00532); binding; 1 µM: 100%
Serine/threonine-protein kinase MRCK beta (CDC42BPB, Homo sapiens, UniProt Q9Y5S2); binding, competition with immobilised ligand; 1 µM: 88%
